# Published values of several laboratories.
# Each line is one published result; not all experiments were run side by side.
Compound,target or system,test,system,conditions,endpoint,value
COc1cccc(OC)c1-c1cc(C(=O)NC2(C(=O)O)C3CC4CC(C3)CC2C4)nn1-c1ccc(C(=O)N(C)CCCN(C)CCCN(C)C(=O)CN2CCN(CC(=O)[O-])CCN(CC(=O)[O-])CCN(CC(=O)[O-])CC2)cc1C(C)C.[177Lu+3] (centres unmarked),HT-29 tumour model,,"host not given, pancreas","4 h, tumour-bearing",tracer uptake,1.2 %ID/g
O=C(c1ccc(F)cc1)C1CCN(CCn2c(=O)[nH]c3ccccc3c2=O)CC1,,"metabolic stability, mass spectrometry","mouse, liver microsomes",5 min,compound remaining,70.1%
O=C1CC[C@H](N2Cc3cc(N4CCN(CC5CCN(c6ccc([C@@H]7c8ccc(O)cc8CC[C@@H]7c7ccccc7)cc6)CC5)CC4)ccc3C2=O)C(=O)N1,,,"male Sprague-Dawley rat, plasma","oral, 20 mg/kg, fed",AUC(0-t),9780 ng·h/mL
COc1cccc(OC)c1-c1cc(C(=O)NC2(C(=O)O)C3CC4CC(C3)CC2C4)nn1-c1ccc(C(=O)N(C)CCCN(C)CCCN(C)C(=O)CN2CCN(CC(=O)[O-])CCN(CC(=O)[O-])CCN(CC(=O)[O-])CC2)cc1C(C)C.[177Lu+3] (centres unmarked),HT-29 tumour model,,"host not given, muscle","intravenous, 4 h, tumour-bearing",tracer uptake,0.5 %ID/g
Nc1ccn([C@@H]2O[C@H](CO)[C@@H](O)C2(F)F)c(=O)n1,MCF7,"cell growth or viability, MTT",,"10 µg/mL, 48 h",viability,17.2%
NCc1cc2c(cc1F)C(=O)N(C1CCC(=O)NC1=O)C2 (centres unmarked),,,"male CD-1 mouse, plasma","intravenous, 1 mg/kg, 1.02 min",concentration,1400 ng/mL
COc1cccc(-c2n[nH]c(SCc3ccccn3)n2)c1OC,,,"male Sprague-Dawley rat, plasma","intravenous, 1 mg/kg, 30 min, single dose",concentration,676 ng/mL
N#C[C@@]12C[C@@H]1[C@@H](n1cnc3c(N[C@@H](C4CCC4)C4CC4)nc(I)nc31)[C@H](O)[C@@H]2O,,,"male Wistar rat, plasma","oral, 1 mg/kg",Tmax,1 h
